Assay results collected from several papers.
Every numbered part comes from another study and shows a few of its results, in no order. Substitutions count along the parent as printed.

Series 1 — target: CREB3L2, bZIP domain (human); technique: DHFR protein complementation; medium: yeast; reference: wild-type JUN-FOS pair; reading: higher = stronger binding; endpoint: binding fitness
Setting: single substitutions, most at no-binding floor
Starting sequence: JUN, bZIP domain (human); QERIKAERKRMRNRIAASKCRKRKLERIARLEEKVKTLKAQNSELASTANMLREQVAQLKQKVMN; partner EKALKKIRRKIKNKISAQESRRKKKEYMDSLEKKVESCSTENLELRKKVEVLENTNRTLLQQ
K36E: -1.56 natural log
E32C: -1.41 natural log
L52I: -1.3 natural log
A40W: -1.42 natural log
A49Y: -1.14 natural log
I28F: -1.24 natural log
E54K: -1.54 natural log
Q55R: -1.41 natural log
S47L: -1.47 natural log
E54I: -1.51 natural log
A49P: -1.48 natural log
T37G: -1.33 natural log
Q55G: -1.48 natural log

Series 2 — technique: DHFR PCA, deep sequencing; medium: yeast; together with: (+)-ABA 4.8 µM; reference: wild-type fitted maximum; reading: higher = stronger binding; endpoint: relative binding score
Target: ABI1, truncated, D143A, DHFR fusion (Arabidopsis thaliana)
Setting: methotrexate growth selection, single substitutions
Starting sequence: PYL1, truncated, DHFR fusion (Arabidopsis thaliana); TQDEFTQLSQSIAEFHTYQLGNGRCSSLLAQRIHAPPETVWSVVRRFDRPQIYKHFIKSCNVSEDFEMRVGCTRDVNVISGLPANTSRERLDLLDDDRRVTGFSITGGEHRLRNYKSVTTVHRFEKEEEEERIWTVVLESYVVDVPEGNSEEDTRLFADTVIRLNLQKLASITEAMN
Q19I: 61.2%
Q31V: 23.7%
Q10Y: 45.4%
L138T: -4.72%
N149V: 21%
R111D: -4.79%
F157H: -10.8%
R113E: 52%
G107W: -0.626%
R74N: -2.66%
E89N: 7.25%
T17G: 19.7%
V118D: 0.315%
Q51E: 65.8%
V78M: 58.5%
K58L: 21%
D95N: 41.2%
V118G: -2.11%

Series 3 — technique: aptamer microarray, sandwich; molecule type: DNA with 2'F-ANA; medium: in vitro; concentration: 200 nM; together with: Cy3 exosite-II aptamer, 400 nM; reading: higher = stronger binding; endpoint: mean fluorescence intensity; oligonucleotide: GGTTGGTGTGGTTGG
Target: Prothrombin, mature alpha-thrombin (F2, Homo sapiens, UniProt P00734)
Setting: whole 15-mer aptamer, many near background
2'F-ANA at 1 2 3 5 7 10 12 14 15: 53.8 a.u.
2'F-ANA at 1 3 5 7 8 9 10 15: 104 a.u.
2'F-ANA at 2 5 6 8 9 11 15: 65.2 a.u.
2'F-ANA at 3 5 6 9 11 15: 78.9 a.u.
2'F-ANA at 2 6 8: 428 a.u.
2'F-ANA at 1 2 7 8 11 12 14 15: 70 a.u.
2'F-ANA at 1 5 12: 127 a.u.
2'F-ANA at 6 9 11 13 15: 318 a.u.
2'F-ANA at 3 8 10 11 12 13 14: 409 a.u.
2'F-ANA at 2 5 8 9 11 15: 62.6 a.u.
2'F-ANA at 2 3 5 6 9 12 13 14: 56.2 a.u.
2'F-ANA at 1 2 3 4 7 9 10 11 15: 58.4 a.u.
2'F-ANA at 1 2 3 4 7 8 9 10 11 12 13 14 15: 57.6 a.u.
2'F-ANA at 3 5 6 8 10 15: 54.3 a.u.
2'F-ANA at 6 8 9 10 11 15: 128 a.u.
2'F-ANA at 1 2 6 8 10 11 12 13 15: 101 a.u.

Series 4 — technique: RNA Bind-n-Seq; molecule type: RNA; medium: in vitro; concentration: 1 µM; setting: whole 134-nt RNA, ends assumed; together with: 150 mM KCl; reference: input library; reading: higher = stronger binding; endpoint: log2 enrichment
Target: Ras GTPase-activating protein-binding protein 1, C-terminal RGG region (G3BP1, Homo sapiens, UniProt Q13283)
UniProt Q13283, sequence (whole entry, looked up): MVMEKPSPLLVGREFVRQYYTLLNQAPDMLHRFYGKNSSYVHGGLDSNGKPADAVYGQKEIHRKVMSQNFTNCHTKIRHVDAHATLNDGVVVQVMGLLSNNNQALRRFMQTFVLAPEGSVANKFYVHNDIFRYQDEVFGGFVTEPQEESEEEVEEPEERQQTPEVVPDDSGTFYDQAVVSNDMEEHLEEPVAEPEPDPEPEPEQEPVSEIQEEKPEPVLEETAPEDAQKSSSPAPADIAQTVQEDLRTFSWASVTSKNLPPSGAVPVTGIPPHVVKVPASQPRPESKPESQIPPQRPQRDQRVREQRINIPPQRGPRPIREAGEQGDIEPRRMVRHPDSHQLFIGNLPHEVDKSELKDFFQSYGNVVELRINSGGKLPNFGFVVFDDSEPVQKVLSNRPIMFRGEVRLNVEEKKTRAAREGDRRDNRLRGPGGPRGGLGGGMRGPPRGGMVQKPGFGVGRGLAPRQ
Constant ends, left off below: GGGAGUUCUACAGUCCGACGAUC … UGGAAUUCUCGGGUGUCAAGG
UGGGAGGUGGAUUUUGUUUAUUUUUUUAGCUCAUUUCCAGGGGUGGGAAUUUUUUUUUAAUAUGAGUCAUGAAUAAAGUUGUUUUUGAAA: 3.47
UCCUGUGCUACACAUCGUAUGUACCGAAUCGGGGAAAAAGGGGAAAAAGGGGAAAAAGGAAAGUAUUAUGUUACGCCGUUCGGAUCUGCA: -1.08
UCCUGUGCUACACAUCGUAUGUACCGAAUCGGGGUUUGGGGAAAGGGGAAAAAAAGGGGAAAGUAUUAUGUUACGCCGUUCGGAUCUGCA: 1.42
UCAAGUCCUGUGCUACACAUCGUAUGUACCGAAUCGGUUUUUUUGGUUUGGAGGAAAGUAUUAUGUUACGCCGUUCGGAUCUGCACUUCC: -1.44
CCUGUGCUACACAUCGUAUGUACCGAAUCGGGGAAAAAGGGGAAAAAAAGGGGAAAGGGGAAAGUAUUAUGUUACGCCGUUCGGAUCUGC: 0.79
GUCCUGUGCUACACAUCGUAUGUACCGAAUCGGGAAAAAAAGGGAAAAAGGGUUUGGGAAAGUAUUAUGUUACGCCGUUCGGAUCUGCAC: -0.315
CCUCAAGUCCUGUGCUACACAUCGUAUGUACCGAAUCGGGCCGGGCCGGCCGGAAAGUAUUAUGUUACGCCGUUCGGAUCUGCACUUCCA: -0.832
CAAUGGGAAUGGACCAAAGAGUUUCAGGGAAACUCCAGUAUAUUCCAGAGUCAGAUCUAAGCUCCAGGCACGCCUGAAGAUGUGUUGCUA: 0.394
CUGUGCUACACAUCGUAUGUACCGAAUCGGGGCCCCCCCGGCCCCCCCGGGCCCCCCCGGGAAAGUAUUAUGUUACGCCGUUCGGAUCUG: -1.86
UUUGUGAGACAUGUGAAAGGAGGACAUGGUCACAGUCAUGGACAUGGACACGCUCACAGUCAUACACGUGGAAGUCAUGGACAUGGAAGA: -2.41
GCAGGAAGUAAAAACAAAUCGAAAUGCUUCGGAUAGUGGCAGGGGUGGGGGUUGCUAAGGAAAGGGUGGGAUGGGAGUGGGUAAAGAGUU: 2.22
UGGCCCUGGUGGCAUGCGGGGAGGAAGAGGUGGCCUCAUGGAUCGUGGUGGUCCCGGUGGAAUGUUCAGAGGUGGCCUUGGUGGAGACAG: 3.42
UGGGAGGUGGAUUUUGUUUAUUUUUUUAGCUCAUUUCCAGGGGUGGGAAUUUUUUUGUAAUAUGUGUCAUGAAUAAAGUUGUUUUUGAAA: 3.66
CCUCAAGUCCUGUGCUACACAUCGUAUGUACCGAAUCGGUGGAAAAAGGUGGAAAGUAUUAUGUUACGCCGUUCGGAUCUGCACUUCCAG: -0.743

Series 5 — target: UBE2D1 UBC core domain (UniProt P51668); technique: yeast two-hybrid; medium: yeast; setting: mostly zero background; reference: not given; reading: higher = stronger interaction; endpoint: lacZ reporter activity
B1: MARCHF2 RING domain (UniProt Q9P0N8); chain RLLSTVIRALDTPSDGPFCRICHEGANGECLLSPCGCTGTLGAVHKSCLEKWLSSSNTSYCELCHTEFAVEKRPRPLTEWL
B2: RMND5B RING domain (UniProt Q96G75); chain MKCWYHSVFACPILRQQTSDSNPPIKLICGHVISRDALNKLINGGKLKCPYCPMEQNPADGK
B3: TRIM28 RING domain (UniProt Q13263); chain GAEALELLEHCGVCRERLRPEREPRLLPCLHSACSACLGPAAPAAANSSGDGGAAGDGTVVDCPVCKQQCFSKDIVE
B4: UBE4B RING domain (UniProt O95155); chain KNARAEIDYSDAPDEFRDPLMDTLMTDPVRLPSGTIMDRSIILRHLLNSPTDPFNRQTLTESMLEPVPELKEQIQAWMREKQNSDH
B5: MDM2 RING domain (UniProt Q00987); chain TQDKEESVESSLPLNAIEPCVICQGRPKNGCIVHGKTGHLMACFTCAKKLKKRNKPCPVCRQPIQMIVLTYFP
B6: TRIM74 RING domain (UniProt Q86UV6); chain SLLELEDWLQCPICLEVFKESLMLQCGHSYCKGCLVSLSYHLDTKVRCPMCWQVVDGSSSLP
B7: RFPL3 RING domain (UniProt O75679); chain MAALFQEASSCPVCSDYLEKPMSLECGCTVCLKCINSLQKEPHGEDLLCCCCSMVSQRNKIRP
B8: PJA2 RING domain (UniProt O43164); chain DHTAIGQEQCCPICCSEYIKDDIATELPCHHFFHKPCVSIWLQKSGTCPVCRRHFPPAVIEA
Construct (chain): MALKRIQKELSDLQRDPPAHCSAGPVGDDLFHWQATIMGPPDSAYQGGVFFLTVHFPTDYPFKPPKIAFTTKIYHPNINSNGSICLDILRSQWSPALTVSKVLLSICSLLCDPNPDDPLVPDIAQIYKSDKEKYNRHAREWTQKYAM
SNNDLASLFECPVCFDYVLPPILQCQSGHLVCSNCRPKLTCCPTCRGPLGSIRNLA (SIAH1 RING domain (UniProt Q8IUQ4)): 2740
B1 (MARCHF2 RING domain): 0
B2 (RMND5B RING domain): 5370
VPADASPDSKCPICLDRFDNVSYLDRCLHKFCFRCVQEWSKNKAECPLCKQPFDSIFHSV (TOPORS RING domain (UniProt Q9NS56)): 17600
KITELNPHLMCALCGGYFIDATTIVECLHSFCKTCIVRYLETNKYCPMCDVQVHKTRPLL (PCGF2 RING domain (UniProt P35227)): 0
B3 (TRIM28 RING domain): 0
B4 (UBE4B RING domain): 0
B5 (MDM2 RING domain): 0
B6 (TRIM74 RING domain): 0
B7 (RFPL3 RING domain): 0
B8 (PJA2 RING domain): 2040

Some of these lines once more (series 5):
SNNDLASLFECPVCFDYVLPPILQCQSGHLVCSNCRPKLTCCPTCRGPLGSIRNLA (SIAH1 RING domain (UniProt Q8IUQ4)): 2740
B1 (MARCHF2 RING domain): 0
B2 (RMND5B RING domain): 5370
VPADASPDSKCPICLDRFDNVSYLDRCLHKFCFRCVQEWSKNKAECPLCKQPFDSIFHSV (TOPORS RING domain (UniProt Q9NS56)): 17600
KITELNPHLMCALCGGYFIDATTIVECLHSFCKTCIVRYLETNKYCPMCDVQVHKTRPLL (PCGF2 RING domain (UniProt P35227)): 0
B3 (TRIM28 RING domain): 0
B4 (UBE4B RING domain): 0
B5 (MDM2 RING domain): 0
B6 (TRIM74 RING domain): 0
